Published values pooled from the literature.
Numbered parts are unrelated; each lists some results of a single study. Changes are numbered by the printed parent chain.

Sample 1
Target: CCND1, cyclin fold, Cln2 fusion (human)
Technique: yeast growth competition, sequencing
Matrix: yeast
Notes: weak parent motif
Baseline: not given
Direction: higher = stronger binding
Measurement: normalised enrichment score
Starting sequence: BRCA2 docking peptide (human); CKKRRALDFLSRL
F9A: 0.346
F9L: 0.806
R12A: 1.41
R5A L7A: 0.558
L7A: 0.837
R5K F9L: 0.96
R4A: 0.244
L10A: 0.708
R5A: 0.842

Sample 2
Target: ABI1, truncated, D143A, DHFR fusion (Arabidopsis thaliana)
Technique: DHFR PCA, deep sequencing
Matrix: yeast
Notes: methotrexate growth selection, single substitutions
With: (+)-ABA 0.032 µM
Baseline: wild-type fitted maximum
Direction: higher = stronger binding
Measurement: relative binding score
Starting sequence: PYL1, truncated, DHFR fusion (Arabidopsis thaliana); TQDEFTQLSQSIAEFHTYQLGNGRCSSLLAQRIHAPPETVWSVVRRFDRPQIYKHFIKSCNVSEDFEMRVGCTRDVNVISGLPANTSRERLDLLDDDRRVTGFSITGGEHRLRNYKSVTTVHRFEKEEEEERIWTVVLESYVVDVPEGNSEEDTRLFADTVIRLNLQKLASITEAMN; partner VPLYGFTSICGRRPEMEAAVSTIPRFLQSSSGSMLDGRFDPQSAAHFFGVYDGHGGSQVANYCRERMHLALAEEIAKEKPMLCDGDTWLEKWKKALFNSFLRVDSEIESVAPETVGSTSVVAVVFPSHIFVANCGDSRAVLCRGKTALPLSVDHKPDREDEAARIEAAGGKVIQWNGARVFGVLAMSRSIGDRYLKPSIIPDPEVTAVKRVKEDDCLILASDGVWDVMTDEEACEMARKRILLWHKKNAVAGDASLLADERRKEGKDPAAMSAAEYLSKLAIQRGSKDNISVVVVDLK
Y115A: -0.983%
E109Y: 6.22%
I33H: 1.75%
A170N: -8.67%
V118G: -3.46%
G21Q: 24%
R45K: -0.854%
T17Q: 0.287%
E128V: 14.1%
D75T: 43.7%
G107F: -1.19%
N114H: 6.08%
V78Y: 94.6%
E128C: 30.7%
G107Y: 0.607%
R69D: 2.94%
R123C: 11.9%
S80T: 31.2%
V78M: 67.7%
Y18E: -5.87%

Sample 3
Target: UBE2G1 UBC core domain (UniProt P62253)
Technique: yeast two-hybrid
Matrix: yeast
Notes: mostly zero background
Baseline: not given
Direction: higher = stronger interaction
Measurement: lacZ reporter activity
B1: RNF115 RING domain (UniProt Q9Y4L5); chain TQEQVDMGLECPVCKEDYTVEEEVRQLPCNHFFHSSCIVPWLELHDTCPVCRKSLNGEDSTR
B2: MARCHF2 RING domain (UniProt Q9P0N8); chain RLLSTVIRALDTPSDGPFCRICHEGANGECLLSPCGCTGTLGAVHKSCLEKWLSSSNTSYCELCHTEFAVEKRPRPLTEWL
B3: UBE4B RING domain (UniProt O95155); chain KNARAEIDYSDAPDEFRDPLMDTLMTDPVRLPSGTIMDRSIILRHLLNSPTDPFNRQTLTESMLEPVPELKEQIQAWMREKQNSDH
B4: RNF17 RING domain (UniProt Q9BXT8); chain SQPWGAAEIQCTRCGRRVSRSSGHHCELQCGHAFCELCLLMTEECTTIICPDCEVATAVNTRQR
B5: TRIM74 RING domain (UniProt Q86UV6); chain SLLELEDWLQCPICLEVFKESLMLQCGHSYCKGCLVSLSYHLDTKVRCPMCWQVVDGSSSLP
B6: RNF11 RING domain (UniProt Q9Y3C5); chain RDGSEKKIRECVICMMDFVYGDPIRFLPCMHIYHLDCIDDWLMRSFTCPSCMEPVDAALLSS
B7: RFPL3 RING domain (UniProt O75679); chain MAALFQEASSCPVCSDYLEKPMSLECGCTVCLKCINSLQKEPHGEDLLCCCCSMVSQRNKIRP
B8: TRIM32 RING domain (UniProt Q13049); chain NLDALREVLECPICMESFTEEQLRPKLLHCGHTICRQCLEKLLASSINGVRCPFCSKITRITSLTQ
B9: NHLRC1 RING domain (UniProt Q6VVB1); chain MREAEISLLECKVCFEKFGHRQQRRPRNLSCGHVVCLACVAALAHPRTLALECPFCRRACRGCDTSD
B10: RNF130 RING domain (UniProt Q86XS8); chain DKETDPDFDHCAVCIESYKQNDVVRILPCKHVFHKSCVDPWLSEHCTCPMCKLNILKALGIV
B11: CBLL1 RING domain (UniProt Q75N03); chain GEKDDTPVHFCDKCGLPIKIYGRMIPCKHVFCYDCAILHEKKGDKMCPGCSDPVQRIEQCT
B12: RMND5B RING domain (UniProt Q96G75); chain MKCWYHSVFACPILRQQTSDSNPPIKLICGHVISRDALNKLINGGKLKCPYCPMEQNPADGK
Target sequence (chain): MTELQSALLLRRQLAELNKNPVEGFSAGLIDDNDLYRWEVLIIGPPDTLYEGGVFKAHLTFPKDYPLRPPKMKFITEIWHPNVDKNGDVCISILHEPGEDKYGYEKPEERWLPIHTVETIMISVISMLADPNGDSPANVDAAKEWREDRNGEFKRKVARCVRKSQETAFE
SNNDLASLFECPVCFDYVLPPILQCQSGHLVCSNCRPKLTCCPTCRGPLGSIRNLA (SIAH1 RING domain (UniProt Q8IUQ4)): 0
B1 (RNF115 RING domain): 0
VPADASPDSKCPICLDRFDNVSYLDRCLHKFCFRCVQEWSKNKAECPLCKQPFDSIFHSV (TOPORS RING domain (UniProt Q9NS56)): 0
B2 (MARCHF2 RING domain): 0
B3 (UBE4B RING domain): 0
EIKDYKARLTCPCCNMRKKDAVLTKCFHVFCFECVKTRYDTRQRKCPKCNAAFGANDFHR (RNF20 RING domain (UniProt Q5VTR2)): 0
KITELNPHLMCALCGGYFIDATTIVECLHSFCKTCIVRYLETNKYCPMCDVQVHKTRPLL (PCGF2 RING domain (UniProt P35227)): 0
B4 (RNF17 RING domain): 0
B5 (TRIM74 RING domain): 0
FLSKVEETFQCICCQELVFRPITTVCQHNVCKDCLDRSFRAQVFSCPACRYDLGRSYAMQ (UHRF1 RING domain (UniProt Q96T88)): 0
B6 (RNF11 RING domain): 0
B7 (RFPL3 RING domain): 0
B8 (TRIM32 RING domain): 0
B9 (NHLRC1 RING domain): 0
B10 (RNF130 RING domain): 0
B11 (CBLL1 RING domain): 0
AAQLLEEKLTCAICLGLYQDPVTLPCGHNFCGACIRDWWDRCGKACPECREPFPDGAELR (TRIM65 RING domain (UniProt Q6PJ69)): 0
MEEMEEELKCPVCGSFYREPIILPCSHNLCQACARNILVQTPESESPQSHRAAGSGVSDY (TRIM9 RING domain (UniProt Q9C026)): 0
B12 (RMND5B RING domain): 0

Sample 4
Target: Interferon regulatory factor 7, full length, phosphomimetic (IRF7, Homo sapiens, UniProt Q92985, residues 1-503, S101K/S471D/S472D/S475D/S476D/S477D/S483D/S484D/S487D)
Technique: protein-binding microarray
Molecule type: double-stranded DNA, one strand shown
Matrix: in vitro
Tested at: 250 nM
Notes: 60-bp whole probe
With: salmon DNA 0.4 mg/ml
Baseline: random background probes
Direction: higher = stronger binding
Measurement: log fluorescence
Constant ends, left off below: GCCTAGCAC … GTCTTGATTCGCTTGACGCTGCTG
Construct (chain): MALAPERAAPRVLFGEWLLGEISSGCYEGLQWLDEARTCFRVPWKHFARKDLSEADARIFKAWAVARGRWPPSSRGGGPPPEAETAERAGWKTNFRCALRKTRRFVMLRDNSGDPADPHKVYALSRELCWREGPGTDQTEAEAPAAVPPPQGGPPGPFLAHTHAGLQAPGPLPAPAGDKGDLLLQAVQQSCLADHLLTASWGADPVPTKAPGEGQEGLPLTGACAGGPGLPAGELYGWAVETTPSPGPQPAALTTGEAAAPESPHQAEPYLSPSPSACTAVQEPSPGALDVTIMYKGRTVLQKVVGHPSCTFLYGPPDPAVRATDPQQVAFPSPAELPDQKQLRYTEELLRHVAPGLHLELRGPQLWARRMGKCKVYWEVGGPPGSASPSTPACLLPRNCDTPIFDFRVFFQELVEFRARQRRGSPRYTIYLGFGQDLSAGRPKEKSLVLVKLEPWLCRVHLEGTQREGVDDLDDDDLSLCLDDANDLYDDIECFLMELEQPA
TCATTTGTTTTTTTCTAACTGTGCTAG: 2.02 z-score
TCAGCTTTAGTCATTCACACTGTGCTA: -0.481 z-score
GAAATTTTCCCCTACTGTATGTGCTAG: 1.29 z-score
TCAAATTTCCCACTTTCACTGTGCTAG: 2.64 z-score
TGAGGACTGGGTATCGGTTAGTGCTAG: 0.205 z-score
TCAACTTTCAGTTCTCCACTGTGCTAG: 1.37 z-score
TCACATTTTCTCTTATTACTGTGCTAG: 1.66 z-score
GACGATTTCGGGGATCGAGACGTGCTA: 0.302 z-score
TTAGGTTTCGGGTTTCTGTTAGTGCTA: 11.1 z-score
TTAGGACTGGGGTTTGGGTTAGTGCTA: -0.175 z-score
TCACCTATTTATATGAGACTGTGCTAG: 1.1 z-score
GACGGTATCGGCCTCGGGACGTGCTAG: -0.433 z-score
TTAGATTTCGGGTATCGATCAGTGCTA: 1.11 z-score
TTAGGCTTCCTACTGCTTTAGTGCTAG: 0.0621 z-score
TCAGGTGTTCTTTTCTGACTGTGCTAG: -0.0698 z-score
TTAGGTTTCGGTGTCGGTTAGTGCTAG: 4.31 z-score
TCACCTCTCCTCTCAGGAACTGTGCTA: -0.249 z-score
TCATCTCTGGTTCTTGCACTGTGCTAG: 0.588 z-score
TTAGATCTCAGACTGGACTAGTGCTAG: 0.165 z-score
GAACATATTTGTTTCCATTTGTGCTAG: 4.16 z-score
TCATTTTTTTCTAACTAACTGTGCTAG: 0.906 z-score
TTAGGTAACGGGTTTCGGTTAGTGCTA: 6.26 z-score
TCAGATTTTGTCCTCCCACTGTGCTAG: 0.133 z-score
GACGGTTTCGAATATCGGGACGTGCTA: 4.9 z-score
TTAGGACTGCTTCTCTTTTAGTGCTAG: 0.792 z-score

Repeated from above (sample 3):
FLSKVEETFQCICCQELVFRPITTVCQHNVCKDCLDRSFRAQVFSCPACRYDLGRSYAMQ (UHRF1 RING domain (UniProt Q96T88)): 0
B1 (RNF115 RING domain): 0
MEEMEEELKCPVCGSFYREPIILPCSHNLCQACARNILVQTPESESPQSHRAAGSGVSDY (TRIM9 RING domain (UniProt Q9C026)): 0
KITELNPHLMCALCGGYFIDATTIVECLHSFCKTCIVRYLETNKYCPMCDVQVHKTRPLL (PCGF2 RING domain (UniProt P35227)): 0
B4 (RNF17 RING domain): 0
B9 (NHLRC1 RING domain): 0
SNNDLASLFECPVCFDYVLPPILQCQSGHLVCSNCRPKLTCCPTCRGPLGSIRNLA (SIAH1 RING domain (UniProt Q8IUQ4)): 0
B3 (UBE4B RING domain): 0
AAQLLEEKLTCAICLGLYQDPVTLPCGHNFCGACIRDWWDRCGKACPECREPFPDGAELR (TRIM65 RING domain (UniProt Q6PJ69)): 0
